Results of several laboratories.
Lines come from different studies, so protocols differ. Several values in a cell are separate wells, animals, samples, runs or records.
PIK3CB: Phosphatidylinositol 4,5-bisphosphate 3-kinase catalytic subunit beta isoform (PIK3CB, Homo sapiens, UniProt P42338)
PIK3CB with p85 alpha: Phosphatidylinositol 4,5-bisphosphate 3-kinase catalytic subunit beta isoform, with p85 alpha (PIK3CB, Homo sapiens, UniProt P42338)

Cc1cnc2nc1Nc1cccc(c1)COC/C=C/COCc1cc(ccc1OCCN1CCOCC1)N2
remaining binding (PIK3CB; binding; 0.1 µM): 100%

C=CC(=O)Nc1cccc(-c2cnc3[nH]cc(C(=O)NC(C)(C)C)c3n2)c1
inhibition (PIK3CB; kinase activity; 0.1 µM): -1% and 10%

CNC1C[S+]2CC[S+]3CC[S+](C1)[Ru-4]321([N]=C=S)[n]2c3ccc(OC)cc3c3c4c(c5cc(F)c[n+]1c5c32)C(=O)NC4=O (centres unmarked)
remaining binding (PIK3CB; KinomeScan; 0.1 µM; reference: untreated): 77%

CNC(=O)C1CCN(c2cc(C)c(F)cc2NC(=O)c2ccc(-c3cc(O)ccc3C)c(C)c2)CC1
remaining binding (PIK3CB; binding, competition with immobilised ligand; 1 µM): 100%

COc1cc(Nc2nc(C)cc(-c3cnn4nc(OC)ccc34)n2)cc(C(F)(F)F)c1
remaining activity (PIK3CB; inhibitor; 1 µM; reference: control): 55%

Cc1nc2c(F)cc(-c3nc(Nc4ccc(CNC(=O)CCCCCCC(=O)NO)cc4)ncc3F)cc2n1C(C)C
inhibition (PIK3CB with p85 alpha; enzyme activity; 1 µM, p110β/p85α)(h human): 5%

C=CC(=O)N1CCc2ccc(-n3c(=O)ccc4cnc5ccc(-c6cnn(C)c6)cc5c43)cc21
remaining binding (PIK3CB; KINOMEscan; 1 µM; reference: DMSO control): 100%

C=CC(=O)Nc1cc(-c2nn(C3CCN(CCNC(=O)[C@H](C)CCC45CC6CC(CC(C6)C4)C5)CC3)c3ncnc(N)c23)ccc1Oc1ccccc1
inhibition (PIK3CB; inhibitor, KiNativ profiling; biochemical; 2 µM): 28.8%

Nc1ncc2c(n1)-c1c([nH]c3ccc(C4=CCOCC4)cc13)CCC2
remaining binding (PIK3CB; binding, competition with immobilised ligand; 1 µM): 100%

CC(C)=CC1OC(C)(C)C2C=C3C(=O)C(Cl)=CC(O)C3C3C(O)C4OC4C(=O)C132 (centres unmarked)
remaining binding (PIK3CB; cell-free assay, competition with immobilised ligand; 10 µM): 57%

CCN1CCN(Cc2ccc(C(=O)Nc3ccc(C)c(NCc4cnc5[nH]ccc5c4OC)c3)cc2C(F)(F)F)CC1
remaining binding (PIK3CB; binding, competition with immobilised ligand; 1 µM): 68%

CC(=O)c1cnc(N)nc1N1CC[C@H]1c1nn2ccc(Cl)c2c(=O)n1-c1ccccc1
remaining binding (PIK3CB; binding, competition with immobilised ligand; 10 µM): 0.45%

COc1c(Cl)cccc1Nc1c(-c2ccncc2C#C[C@@]2(C)CCCN2C(=O)/C=C/CN(C)C)[nH]c2c1C(=O)NCC2
remaining binding (PIK3CB; cell-free assay, competition with immobilised ligand; 3 µM): 96%

C=CC(=O)N1Cc2nc(-c3cc(-c4cc(Cl)cnc4Cl)c(F)cc3F)n(-c3ccncn3)c2C1
inhibition (Phosphatidylinositol 4,5-bisphosphate 3-kinase catalytic subunit beta isoform, with p85 beta (PIK3CB, Homo sapiens, UniProt P42338); kinome panel; 1 µM): -5.5%

Cc1ccc(-c2c(/C=C(\C#N)C(=O)NC(C)C)n(CCCO)c3ncnc(N)c23)cc1
remaining binding (PIK3CB; cell-free assay, competition with immobilised ligand; 1 µM): 92%

COc1cc(Nc2nccc(-c3cnn4nc(OC)ccc34)n2)cc(C(F)(F)F)c1
remaining binding (PIK3CB; binding, competition with immobilised ligand; 1 µM): 100%

C=CC(=O)N1CCCC(n2c(=O)c3ncccc3n(Cc3ccc(Oc4ccccc4)cc3)c2=O)C1 (centres unmarked)
remaining binding (PIK3CB; cell-free assay, competition with immobilised ligand; 1 µM): 91%

CS(=O)(=O)Nc1cccc(-c2csc3cnc(Nc4ccc(N5CCN(CCCCCOc6cccc7c6C(=O)N(C6CCC(=O)NC6=O)C7=O)CC5)cc4)nc23)c1 (centres unmarked)
inhibition (PIK3CB; probe labelling, inhibitor, KiNativ chemoproteomics; MOLT-4; 1 µM): 33.7%

CN1CC[C@@H](COc2cnc(C#N)cc2-c2ccn3nc(NC(=O)C4CC4)cc3c2)C1
inhibition (PIK3CB with p85 alpha; inhibitor, KinaseProfiler panel; 1 µM): 1%

CN1CCN(Cc2ccc(-c3ccc(CO[C@H]4CCC[C@@H]4NC(=O)c4cc(-c5cnn(C)c5)cnc4N)cc3)cc2)CC1
inhibition (PIK3CB with p85 alpha; SelectScreen kinase profiling; 0.1 µM): -1%

For quick reference, copied from above:
CNC1C[S+]2CC[S+]3CC[S+](C1)[Ru-4]321([N]=C=S)[n]2c3ccc(OC)cc3c3c4c(c5cc(F)c[n+]1c5c32)C(=O)NC4=O (centres unmarked)
remaining binding (PIK3CB; KinomeScan; 0.1 µM; reference: untreated): 77%

CN1CCN(Cc2ccc(-c3ccc(CO[C@H]4CCC[C@@H]4NC(=O)c4cc(-c5cnn(C)c5)cnc4N)cc3)cc2)CC1
inhibition (PIK3CB with p85 alpha; SelectScreen kinase profiling; 0.1 µM): -1%
